Published values gathered from unrelated publications.
Numbered parts are unrelated; each lists some results of a single study. “And” joins repeats or separate records; there may be more than shown.
Chain of UniProt P11802 (whole entry, looked up): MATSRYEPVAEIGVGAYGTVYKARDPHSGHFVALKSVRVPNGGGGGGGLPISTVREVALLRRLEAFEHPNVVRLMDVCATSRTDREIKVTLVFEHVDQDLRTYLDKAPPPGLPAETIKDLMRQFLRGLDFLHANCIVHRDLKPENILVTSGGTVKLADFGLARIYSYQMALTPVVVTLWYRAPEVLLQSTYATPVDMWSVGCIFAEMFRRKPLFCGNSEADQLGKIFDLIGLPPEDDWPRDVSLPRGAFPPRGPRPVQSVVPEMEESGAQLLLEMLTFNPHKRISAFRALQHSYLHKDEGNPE
Chain of UniProt Q13554 (whole entry, looked up): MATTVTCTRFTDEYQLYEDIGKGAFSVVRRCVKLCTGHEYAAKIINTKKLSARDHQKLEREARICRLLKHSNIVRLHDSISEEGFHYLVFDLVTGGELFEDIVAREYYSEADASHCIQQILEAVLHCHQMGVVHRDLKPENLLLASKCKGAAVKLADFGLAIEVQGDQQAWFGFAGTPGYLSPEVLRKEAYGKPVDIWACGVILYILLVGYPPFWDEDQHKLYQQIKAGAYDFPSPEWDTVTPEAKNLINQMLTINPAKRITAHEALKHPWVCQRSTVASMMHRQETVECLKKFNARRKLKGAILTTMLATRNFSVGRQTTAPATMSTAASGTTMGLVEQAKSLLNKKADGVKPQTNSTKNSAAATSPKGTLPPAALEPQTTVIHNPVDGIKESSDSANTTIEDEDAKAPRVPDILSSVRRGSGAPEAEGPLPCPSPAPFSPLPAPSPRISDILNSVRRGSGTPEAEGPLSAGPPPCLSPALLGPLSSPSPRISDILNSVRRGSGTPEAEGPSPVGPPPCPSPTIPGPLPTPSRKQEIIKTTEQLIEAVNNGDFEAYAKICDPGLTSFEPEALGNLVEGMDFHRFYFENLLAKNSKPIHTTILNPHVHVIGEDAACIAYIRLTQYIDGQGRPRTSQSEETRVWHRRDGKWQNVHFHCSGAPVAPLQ
Chain of UniProt P54760 (whole entry, looked up): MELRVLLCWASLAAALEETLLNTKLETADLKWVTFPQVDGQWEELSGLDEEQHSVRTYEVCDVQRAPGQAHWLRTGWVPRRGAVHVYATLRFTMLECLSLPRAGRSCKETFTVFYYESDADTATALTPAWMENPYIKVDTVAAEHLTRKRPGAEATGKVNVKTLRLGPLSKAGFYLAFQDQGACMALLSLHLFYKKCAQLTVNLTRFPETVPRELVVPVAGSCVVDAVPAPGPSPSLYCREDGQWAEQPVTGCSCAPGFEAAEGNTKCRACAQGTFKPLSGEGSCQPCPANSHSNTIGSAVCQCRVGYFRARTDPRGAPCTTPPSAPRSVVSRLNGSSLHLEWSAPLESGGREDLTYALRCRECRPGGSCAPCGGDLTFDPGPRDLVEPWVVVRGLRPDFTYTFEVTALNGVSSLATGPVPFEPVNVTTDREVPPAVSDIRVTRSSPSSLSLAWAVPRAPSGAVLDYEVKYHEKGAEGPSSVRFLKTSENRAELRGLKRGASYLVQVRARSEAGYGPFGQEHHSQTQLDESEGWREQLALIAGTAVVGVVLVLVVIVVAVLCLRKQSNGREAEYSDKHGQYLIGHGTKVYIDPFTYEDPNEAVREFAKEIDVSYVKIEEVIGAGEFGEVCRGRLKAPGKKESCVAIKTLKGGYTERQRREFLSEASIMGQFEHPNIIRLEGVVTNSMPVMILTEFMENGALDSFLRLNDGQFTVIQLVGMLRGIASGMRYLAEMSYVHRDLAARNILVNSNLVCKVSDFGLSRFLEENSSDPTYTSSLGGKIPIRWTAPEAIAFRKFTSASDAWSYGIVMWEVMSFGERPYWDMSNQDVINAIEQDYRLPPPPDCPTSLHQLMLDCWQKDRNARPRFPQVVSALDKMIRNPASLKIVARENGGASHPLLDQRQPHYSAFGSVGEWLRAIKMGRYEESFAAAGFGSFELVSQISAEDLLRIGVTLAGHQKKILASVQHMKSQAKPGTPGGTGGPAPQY
Chain of UniProt Q9BYP7 (whole entry, looked up): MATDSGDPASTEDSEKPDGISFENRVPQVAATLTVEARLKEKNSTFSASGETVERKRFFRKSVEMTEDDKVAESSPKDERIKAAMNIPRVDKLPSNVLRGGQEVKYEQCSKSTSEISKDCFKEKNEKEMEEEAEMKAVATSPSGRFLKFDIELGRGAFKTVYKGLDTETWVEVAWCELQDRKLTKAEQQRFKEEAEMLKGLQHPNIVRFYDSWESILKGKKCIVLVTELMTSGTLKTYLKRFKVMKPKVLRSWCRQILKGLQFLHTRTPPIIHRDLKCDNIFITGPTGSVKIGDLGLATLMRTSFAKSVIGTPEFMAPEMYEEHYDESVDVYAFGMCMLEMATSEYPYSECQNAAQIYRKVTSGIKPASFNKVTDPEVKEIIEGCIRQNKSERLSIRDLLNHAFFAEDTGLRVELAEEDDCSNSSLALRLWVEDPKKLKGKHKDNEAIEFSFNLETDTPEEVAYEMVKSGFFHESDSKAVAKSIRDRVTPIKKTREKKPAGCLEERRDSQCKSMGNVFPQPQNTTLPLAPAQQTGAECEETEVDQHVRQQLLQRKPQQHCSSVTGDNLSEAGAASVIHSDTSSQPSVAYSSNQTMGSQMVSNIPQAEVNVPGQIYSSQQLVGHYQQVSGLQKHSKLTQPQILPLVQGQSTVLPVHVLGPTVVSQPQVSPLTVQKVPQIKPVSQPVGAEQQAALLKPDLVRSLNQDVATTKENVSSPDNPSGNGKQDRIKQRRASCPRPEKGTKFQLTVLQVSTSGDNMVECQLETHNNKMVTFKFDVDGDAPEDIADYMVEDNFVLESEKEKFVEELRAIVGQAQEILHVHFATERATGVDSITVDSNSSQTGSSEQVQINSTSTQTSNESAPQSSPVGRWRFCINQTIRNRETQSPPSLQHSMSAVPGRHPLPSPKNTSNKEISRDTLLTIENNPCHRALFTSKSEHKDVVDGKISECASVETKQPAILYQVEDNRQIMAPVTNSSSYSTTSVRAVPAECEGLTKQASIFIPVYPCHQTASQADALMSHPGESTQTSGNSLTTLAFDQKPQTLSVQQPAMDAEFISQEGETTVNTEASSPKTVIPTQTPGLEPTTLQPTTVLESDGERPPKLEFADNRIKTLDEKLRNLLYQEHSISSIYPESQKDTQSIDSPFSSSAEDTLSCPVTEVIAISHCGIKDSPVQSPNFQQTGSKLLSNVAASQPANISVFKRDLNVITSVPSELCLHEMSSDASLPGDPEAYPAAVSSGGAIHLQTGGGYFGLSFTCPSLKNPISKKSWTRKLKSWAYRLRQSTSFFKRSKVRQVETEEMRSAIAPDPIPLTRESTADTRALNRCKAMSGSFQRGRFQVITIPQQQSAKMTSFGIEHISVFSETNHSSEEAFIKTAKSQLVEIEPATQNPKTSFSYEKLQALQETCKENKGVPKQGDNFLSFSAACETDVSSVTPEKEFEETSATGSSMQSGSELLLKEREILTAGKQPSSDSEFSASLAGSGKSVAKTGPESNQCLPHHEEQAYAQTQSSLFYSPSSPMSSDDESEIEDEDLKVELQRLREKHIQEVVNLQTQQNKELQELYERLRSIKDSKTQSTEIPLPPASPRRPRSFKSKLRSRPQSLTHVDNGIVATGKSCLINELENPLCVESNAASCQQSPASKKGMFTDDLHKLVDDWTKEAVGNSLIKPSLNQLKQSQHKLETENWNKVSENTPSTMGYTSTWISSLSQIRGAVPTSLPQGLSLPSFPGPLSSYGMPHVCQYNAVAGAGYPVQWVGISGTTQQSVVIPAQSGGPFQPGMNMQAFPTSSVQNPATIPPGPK
Chain of UniProt P06493 (whole entry, looked up): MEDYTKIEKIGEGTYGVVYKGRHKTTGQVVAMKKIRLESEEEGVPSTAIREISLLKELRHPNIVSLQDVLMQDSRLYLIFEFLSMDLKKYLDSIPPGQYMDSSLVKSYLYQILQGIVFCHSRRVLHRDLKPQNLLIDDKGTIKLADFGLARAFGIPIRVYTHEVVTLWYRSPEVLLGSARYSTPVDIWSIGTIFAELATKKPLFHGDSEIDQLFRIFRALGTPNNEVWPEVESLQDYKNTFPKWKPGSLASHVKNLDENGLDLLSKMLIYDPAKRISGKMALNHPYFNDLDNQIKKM

Series 1 — SMILES: Cc1ccc(O)cc1Nc1ccnc2cc(-c3ccccn3)ccc12; cell line: L929; technique: CCK-8
| assay | setting | viability |
| --- | --- | --- |
| necroptosis protection | 0.00229 µM, with: TNF-α-induced | 13.5% |
| necroptosis protection | 0.185 µM, with: TNF-α-induced | 24% |
| necroptosis protection | 0.062 µM, with: TNF-α-induced | 16.2% |
| necroptosis protection | 2.5 µM, with: TNF-α-induced | 60.5% |
| – | 3.125 µM | 45.8% and 49.3% and 48.7% and 35.8% |
| necroptosis protection | 15 µM, with: TNF-α-induced | 53% |
| necroptosis protection | 0.021 µM, with: TNF-α-induced | 16% |
| necroptosis protection | 0.625 µM, with: TNF-α-induced | 58% |
| necroptosis protection | 0.556 µM, with: TNF-α-induced | 41.9% |

Series 2 — observed: enzyme activity; mode: inhibitor; concentration: 0.5 µM; relative to: control
SMILES: N/C(=N\[N+](=O)[O-])N/N=C\c1ccc(-c2cccc([N+](=O)[O-])c2)o1
| target | remaining activity [%] |
| --- | --- |
| Cyclin-dependent kinase 4, with cyclin D3 (CDK4, Homo sapiens, UniProt P11802) | 103 |
| CAMK2B (Homo sapiens, UniProt Q13554) | 100 |
| Cyclin-dependent kinase 1, with cyclin B (CDK1, Homo sapiens, UniProt P06493) | 87.9 |
| WNK3 (Homo sapiens, UniProt Q9BYP7) | 96.6 |
| EPHB4 (Homo sapiens, UniProt P54760) | 91.6 |

Further values, each from its own experiment
CDPK1: Calcium-dependent protein kinase 1 (CDPK1, Plasmodium falciparum, UniProt P62344)
Chain of UniProt P62344 (whole entry, looked up): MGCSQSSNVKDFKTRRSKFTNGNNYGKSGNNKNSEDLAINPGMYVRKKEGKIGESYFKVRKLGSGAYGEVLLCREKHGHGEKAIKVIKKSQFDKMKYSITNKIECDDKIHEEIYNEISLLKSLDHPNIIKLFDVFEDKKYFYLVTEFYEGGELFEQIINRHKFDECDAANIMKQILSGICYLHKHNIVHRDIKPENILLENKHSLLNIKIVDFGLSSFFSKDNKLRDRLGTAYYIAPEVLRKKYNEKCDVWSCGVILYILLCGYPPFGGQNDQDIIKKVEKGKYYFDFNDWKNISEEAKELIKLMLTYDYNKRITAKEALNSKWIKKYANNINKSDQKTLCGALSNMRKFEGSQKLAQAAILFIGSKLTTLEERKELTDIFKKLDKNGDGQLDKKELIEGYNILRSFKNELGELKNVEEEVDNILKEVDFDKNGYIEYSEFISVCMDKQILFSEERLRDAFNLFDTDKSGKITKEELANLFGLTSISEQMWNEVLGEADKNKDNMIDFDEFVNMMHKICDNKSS
| SMILES | target or system | assay | test system | setting | quantity | result |
| --- | --- | --- | --- | --- | --- | --- |
| COCCOc1nc(-c2ccc(Cl)nc2)nc2c1CN(C(=O)c1ncn3ccccc13)CC2 | CDPK1 | cell-free assay, competition with immobilised ligand | – | 0.1 µM | remaining binding | 100% |
| CC(=O)Oc1ccc(/C=C/c2cc(OC(C)=O)cc(OC(C)=O)c2)cc1 | – | – | human, microsomes or S9 | 2 µM, 0.5 h | remaining compound | 3.81% |
| CCCOc1ccc([C@H]2[C@H](C(=O)O)[C@@H](c3ccc4c(c3)OCO4)CN2CC(=O)Nc2c(CC)cccc2CC)cc1 | CDPK1 | cell-free assay, competition with immobilised ligand | – | 1 µM | remaining binding | 88% |
| Cc1c[nH]c2nccc(Oc3c(F)cc(Nc4cc(Cl)nc(N)n4)cc3F)c12 | CDPK1 | cell-free assay, competition with immobilised ligand | – | 0.1 µM | remaining binding | 91% |

For quick reference, copied from above (series 1):
| assay | setting | viability |
| --- | --- | --- |
| necroptosis protection | 0.021 µM, with: TNF-α-induced | 16% |
| – | 3.125 µM | 45.8% and 49.3% and 48.7% and 35.8% |
| necroptosis protection | 0.062 µM, with: TNF-α-induced | 16.2% |
